Experimental data pooled from the literature.
Parts stem from different laboratories: compare values within a part only. Positions count from the first letter of the parent shown.

Study 1
Target: UDP-N-acetylglucosamine--peptide N-acetylglucosaminyltransferase 110 kDa subunit (OGT, Homo sapiens, UniProt O15294)
Sequence of UniProt O15294 (whole entry, looked up): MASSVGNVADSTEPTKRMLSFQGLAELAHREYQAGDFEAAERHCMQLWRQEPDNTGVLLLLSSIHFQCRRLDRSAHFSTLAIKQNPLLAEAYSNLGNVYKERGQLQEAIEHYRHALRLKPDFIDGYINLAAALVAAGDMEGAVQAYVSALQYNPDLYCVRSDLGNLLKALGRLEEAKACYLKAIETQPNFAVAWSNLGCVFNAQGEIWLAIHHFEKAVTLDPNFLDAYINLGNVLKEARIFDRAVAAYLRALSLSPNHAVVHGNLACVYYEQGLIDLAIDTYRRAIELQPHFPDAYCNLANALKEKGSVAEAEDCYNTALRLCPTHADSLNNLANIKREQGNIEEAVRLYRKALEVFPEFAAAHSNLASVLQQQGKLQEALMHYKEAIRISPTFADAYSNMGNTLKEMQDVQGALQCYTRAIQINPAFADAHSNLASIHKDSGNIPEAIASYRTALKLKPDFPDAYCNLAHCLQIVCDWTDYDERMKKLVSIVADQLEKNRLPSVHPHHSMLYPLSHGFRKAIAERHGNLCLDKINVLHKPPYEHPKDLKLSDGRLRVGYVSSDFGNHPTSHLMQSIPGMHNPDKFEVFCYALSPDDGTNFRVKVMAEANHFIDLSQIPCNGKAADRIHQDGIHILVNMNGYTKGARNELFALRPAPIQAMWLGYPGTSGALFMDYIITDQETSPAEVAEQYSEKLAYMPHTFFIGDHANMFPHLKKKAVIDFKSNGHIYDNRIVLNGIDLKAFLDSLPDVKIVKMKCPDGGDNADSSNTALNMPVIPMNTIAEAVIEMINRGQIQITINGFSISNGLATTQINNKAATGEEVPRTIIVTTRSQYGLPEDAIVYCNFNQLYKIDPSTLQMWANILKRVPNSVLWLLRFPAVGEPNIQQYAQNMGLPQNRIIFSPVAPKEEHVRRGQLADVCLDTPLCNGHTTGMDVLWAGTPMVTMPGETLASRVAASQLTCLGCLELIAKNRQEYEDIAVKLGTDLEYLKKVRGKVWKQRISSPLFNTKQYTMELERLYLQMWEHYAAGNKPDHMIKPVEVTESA
Effect on: binding
Method: phage display NGS
Form: peptide
Concentration: concentration not given
Setting: panning round 4
Relative to: input library
For `NSPFAPKYEITTAWH`, “enrichment fold change” read 1.51.
For `NKYQPQYQILYAANR`, “enrichment fold change” read 1.56.
For `QSNMGYFMPKYRINY`, “enrichment fold change” read 1.85.
For `TMTRDFTPKYQIMVK`, “enrichment fold change” read 4.7.
Under “enrichment fold change”, `GSLFAPKYQMSYEVV` is recorded as 1.61.

Study 2
Target: vanadate, free oxyanion
Method: microfluidic competitive inhibition
Matrix: in vitro, cell-free expressed
Concentration: not given
Setting: derived from inhibition constants, unchanged parent 676 nM
Reading: lower = stronger binding
Starting sequence: PafA, mature enzyme, eGFP fusion (Elizabethkingia meningoseptica, UniProt Q9KJX5); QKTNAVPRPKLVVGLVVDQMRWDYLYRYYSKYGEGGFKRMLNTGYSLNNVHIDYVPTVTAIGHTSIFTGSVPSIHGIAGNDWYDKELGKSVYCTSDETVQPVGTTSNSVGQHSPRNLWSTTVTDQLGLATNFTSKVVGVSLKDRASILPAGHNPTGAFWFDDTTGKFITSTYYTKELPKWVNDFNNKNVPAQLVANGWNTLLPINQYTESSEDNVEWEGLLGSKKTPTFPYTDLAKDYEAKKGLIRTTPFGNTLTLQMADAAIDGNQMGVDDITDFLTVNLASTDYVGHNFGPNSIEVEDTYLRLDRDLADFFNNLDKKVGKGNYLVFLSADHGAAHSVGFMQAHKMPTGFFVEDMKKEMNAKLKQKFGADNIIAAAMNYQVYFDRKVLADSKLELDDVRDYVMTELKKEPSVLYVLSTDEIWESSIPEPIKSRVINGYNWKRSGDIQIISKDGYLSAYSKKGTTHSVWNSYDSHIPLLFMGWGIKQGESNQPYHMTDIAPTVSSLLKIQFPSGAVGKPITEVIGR
`Y302G`: “oxyanion analog dissociation constant” 4.87 µM.
`G514V` — result for “oxyanion analog dissociation constant”: 1.27 µM.
`G334A`: “oxyanion analog dissociation constant” 0.896 µM.
`L456G`: “oxyanion analog dissociation constant” 0.48 µM.
For `G251A`, “oxyanion analog dissociation constant” read 0.663 µM.
`G525A`: “oxyanion analog dissociation constant” 0.687 µM.
For `V16G`, “oxyanion analog dissociation constant” read 0.676 µM.
Under “oxyanion analog dissociation constant”, `H152V` is recorded as 0.744 µM.

Study 3
Target: NFE2, bZIP domain (human)
Method: DHFR protein complementation
Matrix: yeast
Setting: single substitutions, most at no-binding floor
Relative to: wild-type JUN-FOS pair
Reading: higher = stronger binding
Starting sequence: JUN, bZIP domain (human); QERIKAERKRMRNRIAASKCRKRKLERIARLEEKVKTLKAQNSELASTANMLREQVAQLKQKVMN; partner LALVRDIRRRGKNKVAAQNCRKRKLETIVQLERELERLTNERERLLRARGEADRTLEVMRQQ
The binding fitness of `L59S` is reported as -1.51 natural log.
`L31M` has a binding fitness of -1.24 natural log.
With `M51A` the binding fitness was -1.48 natural log.
For `S43F`, the binding fitness was -1.22 natural log.
`L52F` has a binding fitness of -1.55 natural log.
With `K36R` the binding fitness was -1.35 natural log.
`R30Q` has a binding fitness of -1.3 natural log.
The binding fitness of `L38T` is reported as -1.5 natural log.

Study 4
Target: CCNB3, cyclin fold, Cln2 fusion (human)
Method: yeast growth competition, sequencing
Matrix: yeast
Setting: strong parent motif
Relative to: not given
Reading: higher = stronger binding
Starting sequence: viral docking peptide; KGVKRKLFAEDSS; partner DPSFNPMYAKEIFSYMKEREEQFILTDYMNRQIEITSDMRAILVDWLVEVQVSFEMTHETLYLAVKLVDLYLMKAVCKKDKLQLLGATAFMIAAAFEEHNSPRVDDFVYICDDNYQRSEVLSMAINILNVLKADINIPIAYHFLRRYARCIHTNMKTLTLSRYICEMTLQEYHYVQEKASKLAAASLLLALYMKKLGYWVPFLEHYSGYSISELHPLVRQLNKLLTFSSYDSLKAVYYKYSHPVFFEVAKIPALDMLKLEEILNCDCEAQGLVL
For `KGVKSKLFAEDSS [R5S]`, “normalised enrichment score” read -0.0555.
For `KGVNRKLFAEDSS [K4N]`, “normalised enrichment score” read 1.27.
Under “normalised enrichment score”, `KGVKRKLFAEASS [D11A]` is recorded as 2.03.
`KGVKRHLFAEDSS [K6H]` — result for “normalised enrichment score”: 0.454.
Under “normalised enrichment score”, `KGVKRKLLAEDSS [F8L]` is recorded as 0.0276.
Under “normalised enrichment score”, `KGVKRILFAEDSS [K6I]` is recorded as 2.81.
For `KGVKRKLFAEDTS [S12T]`, “normalised enrichment score” read 3.09.
For `KGCKRKLFAEDSS [V3C]`, “normalised enrichment score” read 1.64.
`KGVKRKLFAETSS [D11T]`: “normalised enrichment score” 2.24.
`KGVKRKLFAEDVS [S12V]`: “normalised enrichment score” 3.32.
Under “normalised enrichment score”, `KGVKRKLFAEDRS [S12R]` is recorded as 2.42.
`KLVKRKLFAEDSS [G2L]`: “normalised enrichment score” 2.43.
`KGVKRKSFAEDSS [L7S]`: “normalised enrichment score” 0.2.
Under “normalised enrichment score”, `KPVKRKLFAEDSS [G2P]` is recorded as 4.02.
For `KGVKRKLFVEDSS [A9V]`, “normalised enrichment score” read 3.51.
`KGVKRKLFAEYSS [D11Y]` — result for “normalised enrichment score”: 2.2.
`KGVKNKLFAEDSS [R5N]` — result for “normalised enrichment score”: -0.0319.
`KGVKRKLFAEDES [S12E]` — result for “normalised enrichment score”: 3.15.
`KGVKRKLCAEDSS [F8C]` — result for “normalised enrichment score”: 0.115.
`KGVKRKLFAEWSS [D11W]`: “normalised enrichment score” 1.47.
`KQVKRKLFAEDSS [G2Q]`: “normalised enrichment score” 2.41.
Under “normalised enrichment score”, `KGVKRKLFAEHSS [D11H]` is recorded as 2.33.
Under “normalised enrichment score”, `KGVKRKKFAEDSS [L7K]` is recorded as 0.221.
`KGVKRKLFAEDHS [S12H]` — result for “normalised enrichment score”: 2.61.
For `AGVKRKLFAEDSS [K1A]`, “normalised enrichment score” read 2.15.

Further values, each from its own experiment
Method: cross-linking MS
Under interaction screen, `TRMT10C (Homo sapiens, UniProt Q7L0Y3)` is recorded as “cross-linked” (HSD17B10 (Homo sapiens, UniProt Q99714); hits only).
Under cross-linked residues, `KLHL41 (Homo sapiens, UniProt O60662)` is recorded as “K31 to Y88” (HNRNPAB (Homo sapiens, UniProt Q99729); cell fractions; together with: DSSO).
For `DDX54 (Homo sapiens, UniProt Q8TDD1)`, cross-linked residues read “K125 to E718” (NOC3L (Homo sapiens, UniProt Q8WTT2); cell fractions; together with: DMTMM).
Under cross-linked residues, `EPC1 (Homo sapiens, UniProt Q9H2F5)` is recorded as “K252 to K3370” (MDN1 (Homo sapiens, UniProt Q9NU22); cell fractions; together with: DSSO).

For quick reference, copied from above (study 4):
Under “normalised enrichment score”, `KPVKRKLFAEDSS [G2P]` is recorded as 4.02.
For `KGVKRKLFVEDSS [A9V]`, “normalised enrichment score” read 3.51.
`KGVKRKLFAEYSS [D11Y]` — result for “normalised enrichment score”: 2.2.
`KGVKNKLFAEDSS [R5N]` — result for “normalised enrichment score”: -0.0319.
`KGVKRKLFAEDES [S12E]` — result for “normalised enrichment score”: 3.15.
`KGVKRKLCAEDSS [F8C]` — result for “normalised enrichment score”: 0.115.
